Measurements from different studies.
Protocols differ between the studies behind these lines. Values joined by “and” are separate records of one study, mostly repeats; a detail may differ. ± marks the error that the study gave.
NT5E membrane-bound form: 5'-nucleotidase, membrane-bound form (NT5E, Homo sapiens, UniProt P21589)
HTR6: 5-hydroxytryptamine receptor 6 (HTR6, Homo sapiens, UniProt P50406)
CSNK1E: Casein kinase I isoform epsilon (CSNK1E, Homo sapiens, UniProt P49674)
SIRT5: NAD-dependent protein deacylase sirtuin-5, mitochondrial (SIRT5, Homo sapiens, UniProt Q9NXA8)
ADORA2A: Adenosine receptor A2a (ADORA2A, Homo sapiens, UniProt P29274)
OPRK1: Kappa-type opioid receptor (OPRK1, Homo sapiens, UniProt P41145)
Scn3a: Sodium channel protein type 3 subunit alpha (Scn3a, Rattus norvegicus, UniProt P08104)

| SMILES | target | assay | test system | conditions | inhibition |
| --- | --- | --- | --- | --- | --- |
| NC/C(=C\F)COc1cccc(Cn2c(=S)[nH]c(=O)c3[nH]cnc32)c1 | Amine oxidase copper-containing 3 (Canis lupus familiaris, UniProt A0A8I3MYY3) | inhibitor | dog adipose tissue | 0.0014 µM | 31.7% |
| Cc1cc(C(F)(F)F)c2c(N)c(C(=O)Nc3ccccc3)sc2n1 | NT5E membrane-bound form | CD73 activity, inhibitor, malachite green phosphate | MDA-MB-231 | 100 µM, with: 200 µM AMP | 19 ± 5% |
| COc1ccc2c(c1)CN(CCCN1CCN(c3ccccc3OC)CC1)C2=O | HTR6 | radioligand binding | – | concentration not given, with: [3H]LSD | 6% |
| Fc1ccc(-c2ncn(-c3ccccc3)c2-c2ccncc2)cc1 | CSNK1E | inhibitor | – | 1 µM | 49% |
| CCN1CCN(Cc2ccc(NC(=O)c3ccc(C)c(/C=C/c4cnc5[nH]ccc5c4OC)c3)cc2C(F)(F)F)CC1 | Cyclin-dependent kinase 11B (CDK11B, Homo sapiens, UniProt P21127) | – | A-375 | concentration not given | -0.432% |
| Cc1cc(C)c2c(N)c(C(=O)Nc3ccon3)sc2n1 | NT5E membrane-bound form | CD73 activity, inhibitor, malachite green phosphate | MDA-MB-231 | 100 µM, with: 200 µM AMP | 46 ± 4% |
| COc1cc(-c2cc(C(C)=O)n3ccccc23)cc(OC)c1Cn1ccnc1 | Chromatin remodeling regulator CECR2 (CECR2, Homo sapiens, UniProt Q9BXF3) | – | – | 1 µM | 96.9% |
| CCCCNC(=S)NCCCC[C@H](NC(=O)CCC(=O)NCCOCCOCCCCCCCl)C(=O)N[C@@H](Cc1c[nH]c2ccccc12)C(=O)NC1CCC1 | SIRT5 | enzyme activity, inhibitor | – | 100 µM | < 0% |
| CN1CCN(c2cc(-c3ccncc3)c(-c3ccc4ccccc4c3)nn2)CC1 | Type-1 angiotensin II receptor (AGTR1, Homo sapiens, UniProt P30556) | antagonist, FLIPR | – | 10 µM | 9.8% |
| Cc1ccnc(OC[C@H]2CN(CC(=O)N3CCc4ccccc43)CCO2)c1 | HTR6 | radioligand binding | – | concentration not given, with: [3H]LSD | -17.5% |
| Cc1cccc(-c2nc(-c3ccc(C#N)cc3)[nH]c2-c2ccncc2)c1 | CSNK1E | kinase activity | – | 1 µM | 36% |
| COc1cccc(C(=O)Nc2nc3ccccc3[nH]2)c1 | ADORA2A | – | – | 30 µM | 10 ± 4% |
| CCS(=O)(=O)c1nc(S(=O)(=O)c2ccccc2Cl)c(N2CCN(C)C(=O)[C@H]2C)s1 | OPRK1 | – | – | 10 µM | 5.73% |
| Fc1ccc(-c2ncn(-c3ccc4ccccc4c3)c2-c2ccncc2)cc1 | CSNK1E | inhibitor | – | 1 µM | 15% |
| CCOC(=O)c1ccc(NC(=O)c2sc3nc(C)cc(-c4ccccc4)c3c2N)cc1 | NT5E membrane-bound form | CD73 activity, inhibitor, malachite green phosphate | MDA-MB-231 | 100 µM, with: 200 µM AMP | 32 ± 5% |
| O=C(Nc1cccc2c(=O)cc(-c3nnn[nH]3)oc12)c1ccc(OCCCCc2ccccc2)cc1 | Volume-regulated anion channel subunit LRRC8C, part LRRC8A IL1 chimera (LRRC8C, Homo sapiens, UniProt Q8TDW0) | ion current, inhibitor, whole-cell patch clamp | HCT LRRC8-/- cells, transfected | 0.1 µM, low ionic strength swelling, -100 mV | -4.55% and -9.12% and 0.47% and 8.02% |
| Cc1ncccc1OC[C@@H]1CN(CCN2CCc3ccccc32)CCO1 | HTR6 | radioligand binding | – | concentration not given, with: [3H]LSD | 7.6% |
| CC(C)c1noc2ncc(C(=O)c3ccccc3O)cc12 | Scn3a | ion current, inhibitor, whole-cell patch clamp | – | 10 µM | 3.16% and 2.22% and 0.11% and 4.15% and 5.44% |
| Cc1ccc(CNC(=O)[C@H](CCc2ccccc2)NC(=O)[C@H](CCc2ccccc2)NC(=O)[C@H](CCc2ccccc2)NC(=O)c2cnc(C)cn2)cc1 | Procathepsin L (CTSL, Homo sapiens, UniProt P07711) | enzyme activity | – | 100 µM | 12% |
| O=C(O)/C(=C/c1c(C(=O)O)[nH]c2cc(Cl)cc(Cl)c12)c1ccccc1 | Glutamate receptor ionotropic, NMDA 1 (Grin1, Rattus norvegicus, UniProt P35439) | binding | – | 1 × 10 µM | 99.3% |
| Cc1ccccc1C(=O)Nc1nc2ccccc2[nH]1 | ADORA2A | – | – | 30 µM | 1 ± 1% |
| C=C(NC(=O)C(=C)NC(=O)c1csc(C2=N[C@@H]3c4csc(n4)[C@H]4NC(=O)c5csc(n5)[C@H]([C@](C)(O)[C@@H](C)O)NC(=O)[C@H]5CSC(=N5)/C(=C/C)NC(=O)[C@H]([C@@H](C)O)NC(=O)c5csc(n5)[C@]3(CC2)NC(=O)[C@H](C)NC(=O)C(=C)NC(=O)[C@H](C)NC(=O)[C@H]([C@@H](C)CC)N[C@@H]2C=Cc3c([C@H](C)O)cc(nc3[C@H]2O)C(=O)O[C@@H]4C)n1)C(N)=O | Thioredoxin reductase 2, mitochondrial (Txnrd2, Mus musculus, UniProt Q9JLT4) | enzyme activity | – | 50 µM, 1 h, pH 8.0, 37 °C | no inhibition |

| SMILES | target | assay | test system | conditions | inhibition |
| --- | --- | --- | --- | --- | --- |
| COc1cccc(OC[C@@H]2CN(CCN3CCc4ccccc43)CCO2)c1 | HTR6 | radioligand binding | – | concentration not given, with: [3H]LSD | 19.4% |
| CCN1/C(=C/C(C)=O)Sc2ccc(F)cc21 | L-type calcium channel Phenylalkylamine site, rat | radioligand binding | – | concentration not given | 10.4% |
| COc1ccc(S(=O)(=O)N(CC(=O)NO)CC(C)C)cc1 | Collagenase 3 (MMP13, Homo sapiens, UniProt P45452) | inhibitor | – | 0.1 µM | 28.9 ± 0.305% |
| Cc1cc2c(cc1N1C(=O)c3cccc4c(CCCO)ccc(c34)C1=O)n(C)c(=O)n2C (racemic) | Bromodomain adjacent to zinc finger domain protein 2B (BAZ2B, Homo sapiens, UniProt Q9UIF8) | binding, BROMOscan binding | – | 100 nM | 68% |
| Cc1cccc(NC(=O)CSc2nc(C)cc(-c3ccccc3)c2C#N)n1 | NT5E membrane-bound form | CD73 activity, inhibitor, malachite green phosphate | MDA-MB-231 | 100 µM, with: 200 µM AMP | 27 ± 9% |
| O=C1NC(=O)C2(CCc3ccccc32)N1 (stereo not shown) | GABA-A receptor alpha-1/beta-3, with gamma-2 subunit (GABRA1/GABRB3, Homo sapiens, UniProt P14867+P28472) | reversal, anesthetic-enhanced desensitization | – | concentration not given | 30% |
| O=C(NO)c1ccc(CN2CCCCc3ccccc32)c(F)c1 | OPRK1 | radioligand binding, PDSP radioligand binding | – | 10 µM | 15% |
| COCCOCCOCCNC(=O)CSc1nc(C)cc(C)c1C#N | NT5E membrane-bound form | CD73 activity, inhibitor, malachite green phosphate | MDA-MB-231 | 100 µM, with: 200 µM AMP | 1 ± 8% |
| COc1cc(Cl)c(C(=O)N[C@@H](CN[C@H]2CC[C@@H](N)CC2)Cc2ccc(C#N)cc2)cc1-c1ccc(CN[C@H](C)c2ccc(C)cc2)o1 | HTR6 | agonist response, antagonist | human cells | 10 µM, 5-HT6 antagonist | 6% |
| Cc1nn(-c2nc3ccccc3s2)c(O)c1C(c1ccccc1C(=O)O)c1c(C)nn(-c2nc3ccccc3s2)c1O | Cyclic GMP-AMP synthase, catalytic domain; with DNA (CGAS, Homo sapiens, UniProt Q8N884) | cGAS phase separation, inhibitor | – | 1.25 µM | 96.9% |
| CCCCCCCCCCCCNC(=S)NCCCC[C@H](NS(C)(=O)=O)C(=O)N[C@@H](C)C(=O)N[C@@H](CCCNC(=N)N)C(N)=O | SIRT5 | enzyme activity, inhibitor | – | 100 µM | < 5% |
| O=C(CN1CCO[C@H](COc2ccccc2)C1)N1CCc2ccccc21 | HTR6 | radioligand binding | – | concentration not given, with: [3H]LSD | 26.7% |
| CNc1cccc2cc(C(=O)Nc3ccc(C(=O)O)cc3)c(=O)[nH]c12 | PDGFR | kinase activity, inhibitor | – | 10 µM | 9.7% |
| C=C(C)[C@@H]1CC[C@]2(C)CC[C@]3(C)[C@H](CC[C@@H]4[C@@]5(C)CC[C@H](O)C(C)(C)[C@@H]5CC[C@]43C)[C@@H]12 | Xanthine dehydrogenase/oxidase (XDH, Bos taurus, UniProt P80457) | enzyme activity | – | 25 µg/mL, bovine | < 0% |
| Cc1ccc(C(=O)Nc2ccc3ccccc3c2)o1 | Scn3a | ion current, inhibitor, whole-cell patch clamp | – | 10 µM | 6.8% and 4.7% and 3.7% and 4% and 8.7% |
| CC[C@@H]1[C@H](F)C(=O)N[C@@H]1COc1nccc2cc(C(N)=O)c(OC)cc12 | SNF-related serine/threonine-protein kinase (SNRK, Homo sapiens, UniProt Q9NRH2) | ATP-site probe binding, ActivX profiling | THP-1 cell lysate | 0.01 mM, Lys1 site | 0.6% |
| Cn1cc(-c2cnc3ccc(NC(=O)Nc4ccc(F)c(Br)c4)cc3n2)cn1 | Mitogen-activated protein kinase kinase kinase 3 (MAP3K3, Homo sapiens, UniProt Q99759) | kinase binding, KiNativ profiling, item: Lys1 peptide | PANC-1 lysate | 1.25 µM | 11.7% |
| CCOC(=O)c1ccc(NC(=O)c2sc3nc(C)cc(C(F)(F)F)c3c2N)cc1 | NT5E membrane-bound form | CD73 activity, inhibitor, malachite green phosphate | MDA-MB-231 | 100 µM, with: 200 µM AMP | 2 ± 2% |
| COc1cccc(OC[C@@H]2CN(CC(=O)N3CCc4ccccc43)CCO2)c1 | HTR6 | radioligand binding | – | concentration not given, with: [3H]LSD | 8.9% |
| COC(=O)CNC(=O)CCSc1nc(C)cc(C)c1C#N | NT5E membrane-bound form | CD73 activity, inhibitor, malachite green phosphate | MDA-MB-231 | 100 µM, with: 200 µM AMP | 31 ± 4% |
| Cc1cccc(-c2nc(-c3ccc(NS(C)(=O)=O)cc3)[nH]c2-c2ccncc2)c1 | CSNK1E | kinase activity | – | 1 µM | 40% |
